Assay results of several laboratories.
Compare with care: the assays were run in different laboratories. Numbers after ± are the reported error.

| SMILES | test | system | conditions | how to read | endpoint | value |
| --- | --- | --- | --- | --- | --- | --- |
| COc1ncc(-c2nc3c(n2C(C)C)[C@H](c2ccc(Cl)cc2)N(c2cc(Cl)cn(C)c2=O)C3=O)c(OC)n1 | LC-MS/MS | human, plasma | oral, 400 mg, cycle 2 day 1, high-dose arm | – | Cmax | 3200 ng/mL |
| CC(C)NCCCC[C@@H]1NC(=O)[C@H](Cc2ccc(O)cc2)NC(=O)[C@H](Cc2ccccc2)NC(=O)CC[C@H](C(=O)N[C@@H](CCCCNC(C)C)C(=O)N[C@@H](CCCCNC(=O)[C@H](CCC(=O)O)NC(=O)[C@H](CCC(=O)O)NC(=O)[C@H](CCC(=O)O)NC(=O)CN2CCN(CC(=O)O)CCN(CC(=O)O)CCN(CC(=O)O)CC2)C(N)=O)NC(=O)CNC(=O)[C@H](Cc2ccc3ccccc3c2)NC(=O)[C@@H](CCCNC(=N)N)NC1=O [gallium-68 labelled] | – | mouse with Daudi xenograft, testes | intravenous, 2 h | – | tissue uptake | 0.05 %ID/g |
| CC(C)(C)c1ccc(O)c(CN(Cc2cc(C(C)(C)C)ccc2O)C2CCC(NC(N)=O)CC2)c1 (stereo not drawn) | – | mouse plasma | 5 ng/mL, 24 h, 25 °C, short-term storage | – | recovery | 99.6 ± 1.55% |
| O=C(O)[C@H]1O[C@@H](Oc2ccc(/C=C\c3cc(O)cc(O)c3)cc2)[C@H](O)[C@@H](O)[C@@H]1O | – | human, cerebrospinal fluid | dose not given, mean | – | CSF concentration | not detected |
| CNC(=O)c1ccc(-c2cnc3ncc(Cc4ccc5ncccc5c4)n3n2)cc1F | – | Japanese patients | oral, 400 mg, grade 3/4 | – | ALT increased dose reduction/interruption | 2% |
| CCn1cc(C(=O)N2CCOCC2)c(=O)c2cc(NC3Cc4ccccc4C3)cnc21 | – | human, fasted, plasma | oral, 900 mg single dose, tablet, arithmetic mean | – | AUC(0-inf) | 27000 ng·h/mL |
| CCOc1c([C@H](C)n2nc(C)c3c(N)ncnc32)cc(Cl)c(F)c1[C@@H]1CNC(=O)C1 | – | patients, monotherapy | oral, 15 mg once daily, cycle 1 day 1 | – | Tmax median | 60 min |
| CN[C@@H](C)C(=O)N[C@H]1CN(S(=O)(=O)c2cccc(S(=O)(=O)N3CC[C@H]4CC[C@@H](C(=O)NC(c5ccccc5)c5ccccc5)N4C(=O)[C@@H](NC(=O)[C@H](C)NC)C3)c2)CC[C@H]2CC[C@@H](C(=O)NC(c3ccccc3)c3ccccc3)N2C1=O | LC-MS/MS | human, advanced solid tumours, plasma | intravenous, 30 mg weekly, day 15 | – | AUC(0-t) | 558 ± 169 ng·h/mL |
| Cc1nc(C)c(-c2ccnc(Nc3ccc(Cl)cc3)n2)s1 | – | octanol/buffer | pH 11 | – | logP | 4.23 |
| CNCc1ccc(-c2[nH]c3cc(F)cc4c3c2CCNC4=O)cc1 | – | patients | oral, 600 mg twice daily, grade 4 | – | abdominal distension incidence | 0% |
| CNS(=O)(=O)Cc1ccc2[nH]cc(CCN(C)C)c2c1 | – | octanol/buffer | pH 11, urokinase ligand set | – | logP | 0.83 |
| COc1cc2c(Nc3ccc(Cl)c(Cl)c3F)ncnc2cc1OC[C@@H]1C[C@@H]2CN(C)C[C@@H]2C1 | – | FVB wild-type mouse | oral, 70 mg/kg, 2 h | – | total plasma concentration | 1330 ng/mL |
| O=C([O-])CCCCCCCNC(=O)c1ccccc1O.[Na+] | – | healthy postmenopausal women | oral, 300 mg, median, added: oral contraceptive plus oral semaglutide | – | tmax | 30 min |
| CCN1/C(=C/C(C)=O)Sc2ccc(F)cc21 | – | cynomolgus monkey | oral, 100 mg/kg, 4 h post-dose | relative to: pre-dose | systolic blood pressure change | 102 ± 3.9% |
| Cc1cc(Nc2ccc(S(F)(F)(F)(F)F)cc2)n2nc(C(C)(F)F)nc2n1 | – | Plasmodium vivax malaria patients | oral, 800 mg | – | adverse event sinus bradycardia | 0% |
| COc1ccc2[nH]c([S+]([O-])Cc3ncc(C)c(OC)c3C)nc2c1 (stereo not drawn) | – | healthy Chinese volunteers CYP2C19 IM, plasma | oral, 20 mg single dose, fasted | – | AUC(0-t) | 878 ± 548 ng·h/mL |
| [O]=[Co].[O]=[Co][O][Co]=[O] | – | Crl:CD(SD) rat male, blood | oral, 220 mg Co/kg/day, 90 days, repeated dose | – | haematocrit | 52.7% |
| COc1ccc([C@@H](O)c2cc(-c3ncnc4cc(N5CCOCC5)ccc34)c(F)cc2Cl)nn1 | – | locally advanced rectal cancer patients | 100 mg, added: capecitabine and radiotherapy | – | gastrointestinal disorder TEAE | 100% |
| O=C(O)CCC(=O)O.[2H]C([2H])([2H])Oc1cc(C)c2[nH]ccc2c1CN1CC[C@@H](C2CC2)C[C@H]1c1ccc(C(=O)O)cc1 | – | healthy Chinese subjects | 50 mg, single ascending dose | – | subjects with any TEAE | 33.3% |
| COc1ccc2c(c1)CN(C(=O)CCN1CCC(Cc3ccccc3)CC1)CC[S@@+]2[O-] | telemetry | conscious dog | intravenous, 2 mg/kg, 24 h | – | heart rate | 83 ± 16 beats/min |
| C[C@H]1CN(C(=O)CC#N)[C@]12CCN(c1ncnc3[nH]ccc13)C2 | – | healthy human | oral, 12 mg single | – | subjects with Vomiting | 0% |
| Cn1c(COc2cccc3cccnc23)nnc1SCC(N)=O | – | octanol/buffer | pH 11, known kinase inactives set | – | logP | 0.6 |
| Cn1nc2c(=O)n(C3CC3)ncc2c1[C@](N)(c1ccc(C(F)(F)F)c(Cl)c1)C1CC1 | – | rat Sprague-Dawley male, blood | intravenous, 1 mg/kg | – | CLint,u | 39.5 mL/min/kg |

| SMILES | test | system | conditions | how to read | endpoint | value |
| --- | --- | --- | --- | --- | --- | --- |
| C[Si](C)(C)O[Si](C)(C)C | – | – | 2 to 27 µg/L, 28.3 °C | – | log KOA | 2.69 |
| Cc1cc(-c2nccc3c2ccn3CC(=O)Nc2ccc(-c3cnccn3)cn2)ccn1 | – | human | 15 mg once daily, multiple ascending dose | – | post-procedural erythema | 0% |
| CCCCOC(=O)N1CCN(C(=O)[C@H](CP(=O)(O)O)NC(=O)c2cc(N3CC[C@H](OC)C3)nc(-c3ccccc3)n2)CC1 | item: Potassium | human, blood | 16 mg, 24 h | – | change from baseline | 0 ± 0.35 mmol/L |
| CCCCCC(=O)N1CCC[C@H]1C(=O)N[C@@H](CCC1CCCCC1)C(=O)N[C@@H](CC(C)C)C(=O)NC(C)(C)C(=O)N[C@@H](CC(C)C)C(=O)N[C@@H](CC(C)C)C(=O)NC(C)(C)C(=O)NC(C)(C)C(=O)NCCC(=O)N[C@@H](C)CN(C)C | circular dichroism | phosphate buffer | pH 7.4, 20 °C | – | alpha-helix content | 100% |
| CCc1cc(C(=O)NC)c2nccc(N3CCc4c(cc(Cn5ccnc5)cc4-c4cn(C)nc4C(F)(F)F)C3=O)c2c1 | – | Sprague Dawley rats | oral, 100 mg/kg twice daily, 7 days | relative to: vehicle | serum HCT change | -3.26% |
| CC(C)C[C@H](NC(=O)[C@@H](Cc1c[nH]c2ccccc12)NC(=O)[C@H](Cc1ccc(O)cc1)NC(=O)[C@H](CO)NC(=O)[C@H](Cc1c[nH]c2ccccc12)NC(=O)[C@H](Cc1c[nH]cn1)NC(=O)[C@@H]1CCC(=O)N1)C(=O)N[C@@H](CCCNC(=N)N)C(=O)N1CCC[C@H]1C(=O)NCC(N)=O | – | Chinese CPP boys | intramuscular, 22.5 mg, 12 months, day 1, month 6 | – | patients, drug-related Dermatitis TEAEs | 25% |
| OC[C@H]1OC(O)[C@H](O)[C@@H](O)[C@@H]1O (stereo partly drawn) | – | aqueous solution | 1 mM, added: glucosamine | – | osmolality | 0 mOsmol/kg |
| CCO[C@H]1CCN(Cc2c(OC)cc(C)c3[nH]ccc23)[C@H](c2ccc(C(=O)O)cc2)C1 | – | PNH patients, active haemolysis | oral, 100 mg, 8 weeks, treatment | – | incidence of nasopharyngitis | 0% |
| Cc1ccc([C@@H]2O[C@H](CO)[C@@H](O)[C@H](O)[C@H]2O)cc1Cc1ccc(-c2ccc(F)cc2)s1 | item: inorganic phosphorus | Japanese type 2 diabetes patients | 100 mg, day 16, 24 h urine collection | relative to: baseline | urinary phosphate excretion change | -58.2 mg |
| CC(C)n1c(Nc2cccnc2)nc2cnc(Nc3ccc(N4CCN(C)CC4)cc3)nc21 | item: nodal rhythm | healthy male subjects | oral, 100 mg, study, added: itraconazole | – | subjects with adverse event | 0% |
| Cc1cc(NC2CCN(C(=O)OC3CCN(C(=O)/C=C/CN(C)C)C3)CC2)n2ncc(C(C)C)c2n1 (stereo not drawn) | Phase I dose escalation CTCAE v4.0, item: ALT increased | patients with advanced solid tumours | dose not given, QD dosing any grade | – | patients with adverse event | 16% |
| CC(Sc1nc2ccccc2[nH]1)C(=O)Nc1ccc(S(N)(=O)=O)cc1 (stereo not drawn) | – | octanol/buffer | pH 11 | – | logP | 1.59 |
| Nc1nc(NC2CC2)c2ncn([C@H]3C=C[C@@H](CO)C3)c2n1 | – | Tat+ transgenic mouse, striatum | subcutaneous osmotic pump, dose not given, 5 d | – | drug concentration | 166000 ± 24600 ng/g |
| CC(C)(C(=O)N1CCOc2c(C#N)cncc2C1)C(F)F | – | human, both sexes, plasma | oral, 20 mg twice daily, multiple ascending dose | relative to: day 14 over day 1 | accumulation ratio AUC(0-12h) | 1.63 |
| Cc1ccc(Sc2ccccc2N2CCNCC2)c(C)c1 | – | healthy adult men | oral, 10 mg single dose, treatment-emergent adverse events | – | diarrhoea incidence | 0% |
| CC(=O)O[C@H]1C(=O)[C@@]2(C)[C@H]([C@H](OC(=O)c3ccccc3)[C@]3(O)C[C@H](OC(=O)[C@H](O)[C@@H](NC(=O)c4ccccc4)c4ccccc4)C(C)=C1C3(C)C)[C@]1(OC(C)=O)CO[C@@H]1C[C@@H]2O | item: Pyrexia | patients with advanced solid tumours | intravenous, dose not given, grade 1 and 2, possibly related to drug | – | adverse event incidence | 13% |
| NS(=O)(=O)c1cc(C(=O)O)c(NCc2ccco2)cc1Cl | item: oral herpes | healthy men | 8 days, treatment-emergent, crossover trial | – | subjects with adverse event | 0% |
| CCN(CC)CCNC(=O)c1c(C)[nH]c(/C=C2\C(=O)Nc3ccc(F)cc32)c1C | – | human, serum | 37.5 mg maintenance dose, 24 h post-dose | – | serum concentration | 38.2 ng/mL |
| CN1CCN(c2cccc3c2CCN(C(=O)/C=C/c2c(-n4cnnn4)ccc(Cl)c2F)[C@@H]3C(=O)Nc2ccc(C(=O)O)cc2)C(=O)C1 | – | healthy human subjects | intravenous infusion, 1.5 mg/h, 2 h | – | subjects with any adverse event | 33.3% |
| Cc1cc([C@H]2C[C@H]3[C@@H](CF)SC(N)=N[C@@]3(c3ccc(F)cc3F)CO2)on1 | – | male 129/SVE wild-type mouse, brain | subcutaneous, 100 mg/kg, 1 h | – | brain concentration | 17.2 µM |
| O=C(CSc1nnc(-c2ccc([N+](=O)[O-])cc2)n1-c1ccccc1)N1CCOCC1 | – | octanol/buffer | pH 11, known kinase inactives set | – | logP | 1.72 |
| CN(C)C(=O)c1cc2cnc(Nc3ccc(-c4ccc5c(=O)cc(N6CCOCC6)oc5c4)cc3)nc2n1C1CCCC1 | – | BALB/c mouse, spleen | oral, 20 mg/kg, 24 h | – | concentration | 2.3 ± 2.2 ng/g |

Repeated from above:
| SMILES | test | system | conditions | how to read | endpoint | value |
| --- | --- | --- | --- | --- | --- | --- |
| C[C@H]1CN(C(=O)CC#N)[C@]12CCN(c1ncnc3[nH]ccc13)C2 | – | healthy human | oral, 12 mg single | – | subjects with Vomiting | 0% |
| Cn1c(COc2cccc3cccnc23)nnc1SCC(N)=O | – | octanol/buffer | pH 11, known kinase inactives set | – | logP | 0.6 |
| Cn1nc2c(=O)n(C3CC3)ncc2c1[C@](N)(c1ccc(C(F)(F)F)c(Cl)c1)C1CC1 | – | rat Sprague-Dawley male, blood | intravenous, 1 mg/kg | – | CLint,u | 39.5 mL/min/kg |
